# Experimental data collected from several papers.
# Parts stem from different laboratories: compare values within a part only.
# Sequence of UniProt P06493 (whole entry, looked up): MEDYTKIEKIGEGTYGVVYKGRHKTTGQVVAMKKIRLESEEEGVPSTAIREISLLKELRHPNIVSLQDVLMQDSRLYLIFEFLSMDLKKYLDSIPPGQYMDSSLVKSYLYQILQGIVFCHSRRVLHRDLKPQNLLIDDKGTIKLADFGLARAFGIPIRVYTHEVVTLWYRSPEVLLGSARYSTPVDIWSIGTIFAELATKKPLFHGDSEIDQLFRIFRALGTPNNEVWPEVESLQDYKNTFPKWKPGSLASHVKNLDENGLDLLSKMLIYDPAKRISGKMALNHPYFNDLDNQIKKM
# Sequence of UniProt Q13464 (whole entry, looked up): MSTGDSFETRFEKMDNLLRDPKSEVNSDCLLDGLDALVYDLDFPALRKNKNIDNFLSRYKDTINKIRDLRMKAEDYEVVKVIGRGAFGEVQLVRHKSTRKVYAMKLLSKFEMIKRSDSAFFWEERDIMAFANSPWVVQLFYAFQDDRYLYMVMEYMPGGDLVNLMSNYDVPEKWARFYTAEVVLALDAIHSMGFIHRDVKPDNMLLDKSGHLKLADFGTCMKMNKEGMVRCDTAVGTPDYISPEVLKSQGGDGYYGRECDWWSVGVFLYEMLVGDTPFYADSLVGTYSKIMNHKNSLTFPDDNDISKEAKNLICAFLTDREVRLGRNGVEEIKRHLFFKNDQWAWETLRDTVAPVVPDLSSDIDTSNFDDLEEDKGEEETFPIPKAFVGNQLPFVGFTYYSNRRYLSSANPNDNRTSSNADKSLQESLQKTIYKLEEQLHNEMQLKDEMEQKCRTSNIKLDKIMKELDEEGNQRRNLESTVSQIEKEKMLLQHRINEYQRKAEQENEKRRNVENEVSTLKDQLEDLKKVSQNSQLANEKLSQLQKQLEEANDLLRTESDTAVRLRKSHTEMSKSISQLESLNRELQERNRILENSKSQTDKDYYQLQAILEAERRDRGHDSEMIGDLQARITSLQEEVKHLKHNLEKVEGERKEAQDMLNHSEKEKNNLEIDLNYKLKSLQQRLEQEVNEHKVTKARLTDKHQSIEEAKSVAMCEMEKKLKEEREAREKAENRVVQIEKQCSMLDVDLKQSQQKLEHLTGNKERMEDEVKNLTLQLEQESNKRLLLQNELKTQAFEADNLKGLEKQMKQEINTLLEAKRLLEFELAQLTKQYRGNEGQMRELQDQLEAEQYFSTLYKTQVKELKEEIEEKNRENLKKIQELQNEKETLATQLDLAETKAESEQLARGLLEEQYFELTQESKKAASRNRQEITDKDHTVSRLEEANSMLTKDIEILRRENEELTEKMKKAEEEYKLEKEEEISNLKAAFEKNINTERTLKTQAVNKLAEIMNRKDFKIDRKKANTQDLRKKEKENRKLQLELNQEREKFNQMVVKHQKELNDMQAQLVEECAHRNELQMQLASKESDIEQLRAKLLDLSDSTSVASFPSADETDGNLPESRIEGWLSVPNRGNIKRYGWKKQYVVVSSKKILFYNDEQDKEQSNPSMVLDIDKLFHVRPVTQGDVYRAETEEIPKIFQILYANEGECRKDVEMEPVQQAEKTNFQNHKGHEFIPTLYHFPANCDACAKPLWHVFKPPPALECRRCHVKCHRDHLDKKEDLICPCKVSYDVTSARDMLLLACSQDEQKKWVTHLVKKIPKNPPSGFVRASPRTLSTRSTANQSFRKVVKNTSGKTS
# Sequence of UniProt Q16566 (whole entry, looked up): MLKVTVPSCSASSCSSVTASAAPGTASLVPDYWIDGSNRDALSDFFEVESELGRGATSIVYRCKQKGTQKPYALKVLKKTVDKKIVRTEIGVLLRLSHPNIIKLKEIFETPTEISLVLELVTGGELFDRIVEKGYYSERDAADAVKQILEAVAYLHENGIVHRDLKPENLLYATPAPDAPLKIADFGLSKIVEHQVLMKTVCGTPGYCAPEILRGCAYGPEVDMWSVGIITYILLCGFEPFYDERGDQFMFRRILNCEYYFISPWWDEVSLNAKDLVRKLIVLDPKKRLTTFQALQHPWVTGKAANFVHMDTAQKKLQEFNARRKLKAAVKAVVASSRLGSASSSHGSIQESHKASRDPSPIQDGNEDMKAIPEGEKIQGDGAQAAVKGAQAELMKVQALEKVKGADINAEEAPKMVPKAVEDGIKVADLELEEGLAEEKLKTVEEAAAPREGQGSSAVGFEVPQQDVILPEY
# Sequence of UniProt O60285 (whole entry, looked up): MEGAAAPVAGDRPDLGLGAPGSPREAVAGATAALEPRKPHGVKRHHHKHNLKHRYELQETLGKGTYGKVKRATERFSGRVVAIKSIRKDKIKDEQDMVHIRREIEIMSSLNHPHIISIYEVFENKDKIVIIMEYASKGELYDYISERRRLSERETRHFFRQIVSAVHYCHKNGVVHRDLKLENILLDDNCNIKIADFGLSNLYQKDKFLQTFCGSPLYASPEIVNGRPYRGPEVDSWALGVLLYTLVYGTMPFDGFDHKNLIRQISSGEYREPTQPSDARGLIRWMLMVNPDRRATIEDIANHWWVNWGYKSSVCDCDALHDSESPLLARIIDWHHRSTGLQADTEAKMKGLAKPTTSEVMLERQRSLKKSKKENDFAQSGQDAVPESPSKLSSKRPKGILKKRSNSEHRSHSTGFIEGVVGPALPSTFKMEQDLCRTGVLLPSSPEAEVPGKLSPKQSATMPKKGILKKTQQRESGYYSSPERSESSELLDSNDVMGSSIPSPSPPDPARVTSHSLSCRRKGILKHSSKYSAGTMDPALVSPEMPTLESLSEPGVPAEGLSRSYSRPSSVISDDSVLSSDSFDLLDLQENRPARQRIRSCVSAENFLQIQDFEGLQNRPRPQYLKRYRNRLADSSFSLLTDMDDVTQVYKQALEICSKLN
# Sequence of UniProt P20794 (whole entry, looked up): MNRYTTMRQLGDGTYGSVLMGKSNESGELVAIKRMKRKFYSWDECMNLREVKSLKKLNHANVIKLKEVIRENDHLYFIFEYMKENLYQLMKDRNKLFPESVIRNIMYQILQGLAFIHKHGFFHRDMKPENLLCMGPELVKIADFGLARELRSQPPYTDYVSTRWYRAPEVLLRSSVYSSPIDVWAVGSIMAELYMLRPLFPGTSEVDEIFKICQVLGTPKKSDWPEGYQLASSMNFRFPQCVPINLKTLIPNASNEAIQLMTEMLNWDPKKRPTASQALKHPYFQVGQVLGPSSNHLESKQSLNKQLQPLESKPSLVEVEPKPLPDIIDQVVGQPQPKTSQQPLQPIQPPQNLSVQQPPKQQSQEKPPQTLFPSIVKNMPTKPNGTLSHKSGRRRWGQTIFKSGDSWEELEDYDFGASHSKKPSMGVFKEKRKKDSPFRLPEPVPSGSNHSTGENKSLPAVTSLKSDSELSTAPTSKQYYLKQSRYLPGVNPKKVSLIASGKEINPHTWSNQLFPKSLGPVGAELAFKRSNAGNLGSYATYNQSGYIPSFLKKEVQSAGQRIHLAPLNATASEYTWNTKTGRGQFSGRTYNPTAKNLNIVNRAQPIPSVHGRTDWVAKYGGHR
# Sequence of UniProt Q15569 (whole entry, looked up): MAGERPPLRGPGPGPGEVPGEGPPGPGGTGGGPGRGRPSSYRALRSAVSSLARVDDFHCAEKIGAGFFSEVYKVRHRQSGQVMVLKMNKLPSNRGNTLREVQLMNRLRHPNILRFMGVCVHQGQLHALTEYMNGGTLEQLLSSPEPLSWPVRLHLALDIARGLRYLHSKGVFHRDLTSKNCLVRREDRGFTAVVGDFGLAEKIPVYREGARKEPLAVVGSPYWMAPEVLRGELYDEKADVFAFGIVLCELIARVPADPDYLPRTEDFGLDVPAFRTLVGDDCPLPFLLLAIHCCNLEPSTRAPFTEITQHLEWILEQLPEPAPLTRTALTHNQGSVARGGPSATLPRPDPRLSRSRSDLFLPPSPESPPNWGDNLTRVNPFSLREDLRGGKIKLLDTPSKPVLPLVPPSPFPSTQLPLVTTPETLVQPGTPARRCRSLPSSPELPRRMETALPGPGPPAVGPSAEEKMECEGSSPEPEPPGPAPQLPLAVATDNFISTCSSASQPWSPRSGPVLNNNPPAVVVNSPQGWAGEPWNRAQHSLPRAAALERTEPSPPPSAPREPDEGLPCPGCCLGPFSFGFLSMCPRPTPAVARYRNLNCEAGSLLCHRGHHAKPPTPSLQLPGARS
# Sequence of UniProt P31751 (whole entry, looked up): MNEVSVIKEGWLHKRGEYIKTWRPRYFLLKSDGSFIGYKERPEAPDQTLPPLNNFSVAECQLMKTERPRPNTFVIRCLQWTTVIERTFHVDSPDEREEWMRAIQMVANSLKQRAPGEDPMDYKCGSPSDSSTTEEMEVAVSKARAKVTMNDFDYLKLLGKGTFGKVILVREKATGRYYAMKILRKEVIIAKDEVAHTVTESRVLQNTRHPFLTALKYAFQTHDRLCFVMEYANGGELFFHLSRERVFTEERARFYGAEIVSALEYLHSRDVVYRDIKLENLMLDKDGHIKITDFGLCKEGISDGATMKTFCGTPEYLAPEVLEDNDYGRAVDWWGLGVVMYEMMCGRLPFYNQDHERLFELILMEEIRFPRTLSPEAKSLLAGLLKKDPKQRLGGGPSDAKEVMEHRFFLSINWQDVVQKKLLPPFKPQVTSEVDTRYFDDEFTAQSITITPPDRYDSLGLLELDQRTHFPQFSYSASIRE

# Block 1 — method: RNAcompete; molecule type: RNA; matrix: in vitro; concentration: 20 nM; notes: 7-mer, probes averaged, single round; reference: mean of 7-mers; direction: higher = stronger binding
# Target: PABPC1L2, full length, GST fusion (mouse, UniProt A0ABA7IW68)
# Target sequence (chain): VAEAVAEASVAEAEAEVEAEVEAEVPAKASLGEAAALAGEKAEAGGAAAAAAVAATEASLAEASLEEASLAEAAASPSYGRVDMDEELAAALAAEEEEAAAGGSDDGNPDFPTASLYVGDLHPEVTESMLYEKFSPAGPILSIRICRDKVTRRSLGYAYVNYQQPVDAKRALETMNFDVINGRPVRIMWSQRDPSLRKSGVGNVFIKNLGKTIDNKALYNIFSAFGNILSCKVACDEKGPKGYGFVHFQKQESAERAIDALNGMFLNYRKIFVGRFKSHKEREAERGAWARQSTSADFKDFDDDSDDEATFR
Strand,7-mer Z-score
GAAUCAC,-0.0301
UUACCUU,-0.331
CAUUUUG,-0.199
GGUGCAA,0.349
UAUUGCG,-0.0917
AAAGGGU,1.1
CCUUAAU,-0.342
CUAGCCG,-0.246

# Block 2 — SMILES: CNc1cc2c(Nc3cccc(Br)c3)ncnc2cn1; observed: enzyme activity; mode: inhibitor; concentration: 0.5 µM; reference: control
target,remaining activity [%]
"MAPK1 (Homo sapiens, UniProt P28482)",88.6
"DDR2 (Homo sapiens, UniProt Q16832)",100
"CAMK4 (Homo sapiens, UniProt Q16566)",104
"Cyclin-dependent kinase 9, with cyclin K (CDK9, Homo sapiens, UniProt P50750)",105
"Cyclin-dependent kinase 1, with cyclin A (CDK1, Homo sapiens, UniProt P06493)",86.5
"CLK3 (Homo sapiens, UniProt P49761)",87.6
"KDR (Homo sapiens, UniProt P35968)",77.6
"CLK4 (Homo sapiens, UniProt Q9HAZ1)",60.9
"PLK3 (Homo sapiens, UniProt Q9H4B4)",96.4
"AKT2 (Homo sapiens, UniProt P31751)",99.6
"GRK4 (Homo sapiens, UniProt P32298)",98.2
"MINK1 (Homo sapiens, UniProt Q8N4C8)",91.9
"RPS6KA4 (Homo sapiens, UniProt O75676)",109
"ROCK1 (Homo sapiens, UniProt Q13464)",98.8

# Block 3 — concentration: 1 µM
# Structure (SMILES): C[C@@H]1CN(c2cc(-c3nn(C)c4ccc(OC5(C)CC5)cc34)ncn2)C[C@H](C)O1
target,assay,remaining binding [%]
"ACVRL1 (Homo sapiens, UniProt P37023)","cell-free assay, competition with immobilised ligand",63
"NUAK1 (Homo sapiens, UniProt O60285)","cell-free assay, competition with immobilised ligand",100
"CDC42BPG (Homo sapiens, UniProt Q6DT37)",competition binding,100
"CDKL2 (Homo sapiens, UniProt Q92772)","cell-free assay, competition with immobilised ligand",100
"CDK18 (Homo sapiens, UniProt Q07002)","cell-free assay, competition with immobilised ligand",100
"CSNK1G3 (Homo sapiens, UniProt Q9Y6M4)","cell-free assay, competition with immobilised ligand",100
"MAP3K20 (Homo sapiens, UniProt Q9NYL2)","cell-free assay, competition with immobilised ligand",100
"FGFR3 (Homo sapiens, UniProt P22607)","cell-free assay, competition with immobilised ligand",100
"Tyrosine-protein kinase ABL1, phosphorylated (ABL1, Homo sapiens, UniProt P00519, H396P)","cell-free assay, competition with immobilised ligand",70
"MAPK1 (Homo sapiens, UniProt P28482)","cell-free assay, competition with immobilised ligand",100
"KIT (Homo sapiens, UniProt P10721, V559D)","cell-free assay, competition with immobilised ligand",100
"EIF2AK1 (Homo sapiens, UniProt Q9BQI3)","cell-free assay, competition with immobilised ligand",60
"DCLK1 (Homo sapiens, UniProt O15075)","cell-free assay, competition with immobilised ligand",64
"PIP4K2C (Homo sapiens, UniProt Q8TBX8)","cell-free assay, competition with immobilised ligand",98
"PIK3CA (Homo sapiens, UniProt P42336, I800L)","cell-free assay, competition with immobilised ligand",66
"CAMK1G (Homo sapiens, UniProt Q96NX5)","cell-free assay, competition with immobilised ligand",82
"TESK1 (Homo sapiens, UniProt Q15569)","cell-free assay, competition with immobilised ligand",100
"PIP5K1C (Homo sapiens, UniProt O60331)","cell-free assay, competition with immobilised ligand",90
"MAK (Homo sapiens, UniProt P20794)","cell-free assay, competition with immobilised ligand",100

# Block 4 — method: RNA Bind-n-Seq; molecule type: RNA; matrix: in vitro; concentration: 100 nM; reference: input RNA pool; direction: higher = stronger binding
# Target: RING finger protein unkempt homolog, zinc fingers 1-6, SBP tag (UNK, Homo sapiens, UniProt Q9C0B0, residues 30-357)
# Sequence of UniProt Q9C0B0 (30-357, looked up): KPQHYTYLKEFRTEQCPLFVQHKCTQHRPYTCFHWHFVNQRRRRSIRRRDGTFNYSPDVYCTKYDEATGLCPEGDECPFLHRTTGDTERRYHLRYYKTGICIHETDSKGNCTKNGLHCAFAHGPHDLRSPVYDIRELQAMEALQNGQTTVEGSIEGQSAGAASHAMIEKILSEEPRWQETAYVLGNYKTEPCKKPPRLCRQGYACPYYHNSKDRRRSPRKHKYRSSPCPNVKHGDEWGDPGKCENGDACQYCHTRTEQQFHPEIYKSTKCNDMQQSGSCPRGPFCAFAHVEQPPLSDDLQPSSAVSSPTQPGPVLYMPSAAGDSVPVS
# Notes: RNA with constant flanks, vertebrate orthologous sites, ends assumed
# Shared flanks, not repeated: GGGAGUUCUACAGUCCGACGAUC … CAACAGAGGAUUGAGCAUCA
Strand,bound/input enrichment
CAUUGUACCCUCCUGUAUAAUAAACAAUCUUAGACAUUUAUCAACUGUUGAUACAAAUGUUAGUCCCUAACCACUUUUUAUAUAUGUUUUAAAUUUUUGAAAUUCAAGUGUACCUGCCAU,1.53 ratio
UAAUGUGUUGUUAUUUAUUAAGGCUAAUUUUGAGGCAAGGACUGUGUUAGUUUUACAAUGCUGGGUUAAUUCCUGUUCAUUGUUUUCAUUAUUGGAAAUAAAUAGAACUUUGUAUUUGAG,0.55 ratio
GUUAAUGUGUUAUUUAUUGAGUAUAGUUUGUGCUAAGCAUUGUGUUCGAUUUAAAAAAAUUAGUGGAUUGACUCCACUUUGUUGUGUUGUUUUCAUUGUUGAAAAUAAAUAUAACUUUGU,0.36 ratio
CAUUUUUACAAUCUUCUACUUAAACUGGUAUUUUCAAAGAAUAGAAUUUUUUUUUUACCGUUUAGUAUCUGGUUUCUACAUGGAAGACUAAACUCAUGCUUAUAGCUAAAUGUGGUCUUU,0.245 ratio
CUCCGCUGAACCCCAUUUCUUCUGUUUCAUAGUGCAGAAGUAUUCUUUCAACUAUAUUUUUAGUGGACUUGUUUUAAUUUUAGAGGAAUUUCCAGUACAGAUGCUGUGAGCUGACAUGGA,1.39 ratio
GGCAGCCAGUGGGGGUUGUCCCCCUCCCUGGCCUUGCCUCCCCUCCCUGCCACCUGCCCCUCCUUAUUUUUUUUUAACCACCAUGUGAUUAAGGUUGGCGCUGCCUCCCCCGACCUACUC,0.827 ratio
GAAUUGAAAAGCCAGAGCUUCACCCAGGCCCCUGUUCACUAGGAGAUACAAAUAUUACAUUAGAAGAACAAUUAAACUCCAUAAAUUUAUCUUUUCAGGAUGAUCCAGACUCCAGUACCA,1.21 ratio
GUUGUGAUCCCUUUAAUAUGCACAGAAAACUGUCAAAGAAAAACUUGCGUGCAAUUGACCUGCAUGACGCAACUUUUCUAACUGCCAAGUUUGGAAGACAGUUUGUACCUGGUUGGAAGC,0.41 ratio

# Excerpt of the above (block 3):
target,assay,remaining binding [%]
"EIF2AK1 (Homo sapiens, UniProt Q9BQI3)","cell-free assay, competition with immobilised ligand",60
"CDC42BPG (Homo sapiens, UniProt Q6DT37)",competition binding,100
"CDK18 (Homo sapiens, UniProt Q07002)","cell-free assay, competition with immobilised ligand",100
"PIP5K1C (Homo sapiens, UniProt O60331)","cell-free assay, competition with immobilised ligand",90
"CAMK1G (Homo sapiens, UniProt Q96NX5)","cell-free assay, competition with immobilised ligand",82
"PIP4K2C (Homo sapiens, UniProt Q8TBX8)","cell-free assay, competition with immobilised ligand",98
"TESK1 (Homo sapiens, UniProt Q15569)","cell-free assay, competition with immobilised ligand",100
